Experimental data of several laboratories.
Parts stem from different laboratories: compare values within a part only.

Block 1
Target: Prothrombin, mature alpha-thrombin (F2, Homo sapiens, UniProt P00734)
Method: aptamer microarray, sandwich
Molecule type: DNA with 2'F-ANA
Matrix: in vitro
Concentration: 200 nM
Notes: whole 15-mer aptamer, many near background
With: Cy3 exosite-II aptamer, 400 nM
Reading: higher = stronger binding
| Strand | mean fluorescence intensity [a.u.] |
| --- | --- |
| GGTTGGTGTGGTTGG (2'F-ANA at 3 6 11 13 15) | 767 |
| GGTTGGTGTGGTTGG (2'F-ANA at 1 2 3 5 8 9 11 13 14) | 46.2 |
| GGTTGGTGTGGTTGG (2'F-ANA at 1 3 6 10 14) | 63.9 |
| GGTTGGTGTGGTTGG (2'F-ANA at 1 2 6 7 8 12 14) | 70.3 |

Block 2
Target: RNA binding protein fox-1 homolog 2, RRM domain, GST-SBP tag (RBFOX2, Homo sapiens, UniProt O43251-10, residues 100-194)
Method: RNA Bind-n-Seq
Molecule type: RNA
Matrix: in vitro
Concentration: 365 nM
Notes: natural RNA segment, single round, ends assumed
Reference: no-protein control
Reading: higher = stronger binding
| Strand | RBNS enrichment (R) |
| --- | --- |
| GGGAGUUCUACAGUCCGACGAUCUUGGUUCUUUUUUCCUUUUUUAGGAAAAACAAAACAACAGACUUCAUCCUUAGGUUUUCUCAAGAUUUAAGUGAACACAUUUACACAUAUCAAUUUCUUAAAGAACACAAUGGAAUUCUCGGGUGCCAA | 0.426 |
| GGGAGUUCUACAGUCCGACGAUCAUAAAGUAUGACCCACAUUACUUUUUAUGGGUGAAAAUAAGACAAAAAUAAUAGUUUUAGUGAGGAUGGUGCUGAGUAAACAUAAAAACUGAUUUGCUCUCAGCUGAUGUUGGAAUUCUCGGGUGCCAA | 0.539 |
| GGGAGUUCUACAGUCCGACGAUCGACUCUUUACUCAGGUGCAUGGUUACAGCCCACAGGGAGGCAUGGAGUGCCAUGGAAGGAUUCGCCACUACCCAGACCUUGUUUUUUGUUGUAUUUUGGAAGACAGGUUUUGGAAUUCUCGGGUGCCAA | 2.14 |
| GGGAGUUCUACAGUCCGACGAUCAAAAAUUUUAAAAAUAUAACGAGGGAUAAAUUUUUGGUGGUGAUAGUGUCCCAGUACAAAAAGGCUGUAAGAUAGUCAACCACAGUAGUCACCUAUGUCUGUGCCUCCCUUGGAAUUCUCGGGUGCCAA | 0.55 |

Block 3
Target: Histone acetyltransferase KAT6A, winged helix 2, GST fusion (KAT6A, Homo sapiens, UniProt Q92794, residues 85-181)
Method: protein binding microarray
Molecule type: double-stranded DNA, one strand shown
Matrix: in vitro
Concentration: not given
Notes: 8-mer, flanks averaged, mean of 2 arrays, mostly near background
Reference: not given
Reading: higher = stronger binding
Target sequence (chain): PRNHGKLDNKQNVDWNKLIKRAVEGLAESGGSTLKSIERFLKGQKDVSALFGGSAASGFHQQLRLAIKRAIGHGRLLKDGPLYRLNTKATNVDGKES
| Strand | E-score |
| --- | --- |
| GCCCACGA | 0.0353 |
| CGGACAAC | 0.174 |
| ACTTAGGA | -0.0559 |
| AAATTAGG | 0.16 |

Other studies, line by line
| Molecule | target | assay | test system | setting | scale | quantity | result |
| --- | --- | --- | --- | --- | --- | --- | --- |
| PhoQ, residues 284 288 289 292 302 303 NLAAMI | PhoP, residues 12 14 15 18 19 DLLYY (Escherichia coli, UniProt P23836) | Sort-seq, measured: YFP reporter | E. coli | PhoQ-PhoP variant library, with: 10 µM Mg2+ | reference: high Mg2+ state, higher = stronger signaling | fold induction | 1.2 |
